# Measurements gathered from unrelated publications.
# Protocols differ between the studies behind these lines.
# Organism: Staphylococcus aureus
Structure (SMILES),test,test system,conditions,MIC
CN1C(=O)Cc2ccc(F)c(CCNC[C@H]3CN(c4ccc5c(n4)NC(=O)CO5)C(=O)O3)c21,,ATCC 29213,,0.03 µg/mL
CC[C@H](C)[C@H](N)C(=O)N[C@@H](CC(C)C)C(=O)NCC(=O)N[C@H](CCCNC(=N)N)C(=O)N[C@H](C(=O)N[C@H](C(=O)N[C@@H](CCCCN)C(=O)NCC(=O)N[C@H](C(=O)N[C@@H](CCCCN)C(=O)N[C@@H](CC(=O)O)C(=O)N[C@H](C(=O)N[C@@H](CC(C)C)C(N)=O)[C@@H](C)CC)[C@@H](C)CC)C(C)C)[C@@H](C)CC,broth microdilution,"ATCC 25923, Mueller-Hinton broth","16 h, 37 °C",50 µM
CC[C@H](C)[C@H](NC(=O)[C@H](CC(C)C)NC(=O)[C@H](CCCNC(=N)N)NC(=O)[C@@H](N)CCCNC(=N)N)C(=O)N[C@@H](CCCNC(=N)N)C(=O)N[C@@H](CCCCN)C(=O)N[C@@H](CC(C)C)C(=O)N[C@@H](CCCCN)C(=O)NCC(=O)N1CCC[C@H]1C(=O)N[C@H](C(=O)N[C@H](C(=O)N[C@@H](Cc1ccc(O)cc1)C(=O)N[C@@H](CC(C)C)C(=O)N[C@@H](Cc1ccc(O)cc1)C(=O)N[C@@H](Cc1ccccc1)C(=O)N[C@@H](CCCCN)C(=O)N[C@@H](CC(C)C)C(=O)N[C@@H](CCC(N)=O)C(=O)N[C@@H](CC(C)C)C(=O)N[C@@H](CC(C)C)C(=O)N[C@@H](CCCCN)C(=O)N[C@@H](CCCCN)C(N)=O)[C@@H](C)CC)[C@@H](C)CC,,"CCARM 3090, methicillin-resistant, Mueller-Hinton broth",24 h,64 µM
CC[C@H](C)[C@H](N)C(=O)N[C@@H](CCCNC(=N)N)C(=O)N[C@H](C(=O)N[C@@H](Cc1c[nH]c2ccccc12)C(=O)N[C@@H](Cc1c[nH]c2ccccc12)C(=O)N[C@@H](CCCCN)C(=O)N[C@H](C(=O)N[C@H](C(=O)N[C@@H](CCCNC(=N)N)C(=O)N[C@@H](CCCCN)C(=O)N[C@@H](Cc1c[nH]c2ccccc12)C(=O)N[C@@H](CCCCN)C(=O)N[C@@H](C)C(=O)N[C@H](C(=O)N[C@@H](Cc1c[nH]c2ccccc12)C(=O)N[C@@H](Cc1c[nH]cn1)C(N)=O)[C@@H](C)CC)C(C)C)[C@@H](C)CC)C(C)C,broth dilution,"ATCC 25923, Mueller-Hinton broth","24 h, 37 °C",25 µM
CS(=O)(=O)Nc1ncn(-c2cc(F)c(COc3ccc(OS(=O)(=O)F)cc3)c(F)c2)n1,,MRSA,,> 50 µM
COc1ccc(CC2NCCc3cc(OC)c(OC)cc32)cc1OC.Cl (stereo not shown),,,"24 h, 37 °C",> 1600 µM
COc1ccnc(NC(=S)N2CCN(c3ncc(C(F)(F)F)cc3Cl)CC2)c1,,"MRSA USA500-2104, clinical",,1.6 µM
CC[C@H](C)[C@H](NC(=O)[C@H](CC(C)C)NC(=O)[C@H](CCCNC(=N)N)NC(=O)[C@H](CC(C)C)NC(=O)[C@@H](NC(=O)[C@@H](NC(=O)[C@H](CCCNC(=N)N)NC(=O)[C@@H](NC(=O)[C@@H](NC(=O)[C@H](CCCNC(=N)N)NC(=O)[C@H](CCCNC(=N)N)NC(=O)[C@H](CCCNC(=N)N)NC(=O)[C@H](CO)NC(=O)[C@@H](N)CCCNC(=N)N)[C@@H](C)CC)[C@@H](C)CC)[C@@H](C)CC)C(C)C)C(=O)N[C@@H](CCCNC(=N)N)C(=O)N[C@@H](CCCNC(=N)N)C(=O)N[C@@H](CO)C(=O)N[C@@H](C)C(=O)N[C@@H](CCCNC(=N)N)C(N)=O,broth microdilution,ATCC 29213,highest value reported,8 µM
CC[C@H](C)[C@H](NC(=O)[C@H](Cc1c[nH]c2ccccc12)NC(=O)[C@@H](NC(=O)[C@H](Cc1c[nH]c2ccccc12)NC(=O)[C@@H]1CCCN1C(=O)[C@@H](NC(=O)[C@H](C)N)[C@@H](C)CC)[C@@H](C)CC)C(=O)N[C@@H](Cc1c[nH]c2ccccc12)C(=O)N[C@@H](CCCNC(=N)N)C(=O)N[C@@H](CC(C)C)C(=O)N[C@@H](CC(C)C)C(=O)N[C@@H](CCCNC(=N)N)C(=O)N[C@@H](CCCCN)C(=O)NCC(N)=O,broth microdilution,ATCC 6051,"18 h, 37 °C",0.23 µM
CC[C@H](C)[C@H](NC(=O)[C@H](CCCCN)NC(=O)[C@H](CCCCN)NC(=O)CNC(=O)[C@H](CCCCN)NC(=O)[C@H](CC(C)C)NC(=O)[C@H](CCCCN)NC(=O)[C@H](CCCNC(=N)N)NC(=O)[C@@H](NC(=O)[C@H](CC(C)C)NC(=O)[C@H](CCCNC(=N)N)NC(=O)[C@@H](N)CCCNC(=N)N)[C@@H](C)CC)C(=O)N[C@@H](Cc1ccc(O)cc1)C(=O)N[C@@H](CC(C)C)C(=O)N[C@@H](Cc1ccc(O)cc1)C(=O)N[C@@H](Cc1ccccc1)C(=O)N[C@@H](CCCCN)C(=O)N[C@@H](CC(C)C)C(=O)N[C@@H](CCC(N)=O)C(=O)N[C@@H](CC(C)C)C(=O)N[C@@H](CC(C)C)C(=O)N[C@@H](CCCCN)C(=O)N[C@@H](CCCCN)C(N)=O,,"KCTC 1621, Mueller-Hinton broth",together with: 1 mM MgCl2,16 µM
c1ccc(CCOC2CCCc3c2[nH]c2ccccc32)cc1 (stereo not shown),broth microdilution,SA113,,> 16 µg/mL
CN[C@H](CC(C)C)C(=O)N[C@H]1C(=O)N[C@@H](CC(N)=O)C(=O)N[C@H]2C(=O)N[C@H]3C(=O)N[C@H](C(=O)N[C@H](C(=O)O)c4cc(O)cc(O)c4-c4cc3ccc4O)[C@H](O)c3ccc(c(Cl)c3)Oc3cc2cc(c3O[C@@H]2O[C@H](CO)[C@@H](O)[C@H](O)[C@H]2O[C@H]2C[C@](C)(N)[C@H](O)[C@H](C)O2)Oc2ccc(cc2Cl)[C@H]1O,broth microdilution,"MW2 (MRSA), cation-adjusted Mueller-Hinton broth",,2 µg/mL
CC[C@H](C)[C@H](N)C(=O)N[C@@H](CC(C)C)C(=O)NCC(=O)N[C@H](CCCNC(=N)N)C(=O)N[C@H](C(=O)N[C@@H](Cc1c[nH]c2ccccc12)C(=O)N[C@@H](CCCCN)C(=O)NCC(=O)N[C@H](C(=O)N[C@@H](CCCCN)C(=O)N[C@@H](CC(=O)O)C(=O)N[C@H](C(=O)N[C@@H](CC(C)C)C(N)=O)[C@@H](C)CC)[C@@H](C)CC)[C@@H](C)CC,broth microdilution,ATCC 25923,together with: human serum 10%,25 µM
CCCCCCCCCC(=O)N[C@@H](Cc1c[nH]c2ccccc12)C(=O)N[C@H](CC(N)=O)C(=O)N[C@@H](CC(=O)O)C(=O)N[C@@H]1C(=O)NCC(=O)N[C@@H](CCCN)C(=O)N[C@@H](CC(=O)O)C(=O)N[C@H](C)C(=O)N[C@@H](CC(=O)O)C(=O)NCC(=O)N[C@H](CO)C(=O)N[C@@H]([C@H](C)CC(=O)O)C(=O)N[C@@H](CC(=O)c2ccccc2N)C(=O)O[C@@H]1C,,"mecA−, antibiotic-susceptible",,4 µg/mL
CC[C@H](C)[C@H](NC(=O)[C@H](Cc1ccccc1)NC(=O)[C@@H](NC(=O)[C@H](Cc1ccccc1)NC(=O)[C@@H]1CCCN1C(=O)[C@@H](NC(=O)[C@H](C)N)[C@@H](C)CC)[C@@H](C)CC)C(=O)N[C@@H](Cc1c[nH]c2ccccc12)C(=O)N[C@@H](CCCNC(=N)N)C(=O)N[C@@H](CC(C)C)C(=O)N[C@@H](CC(C)C)C(=O)N[C@@H](CCCNC(=N)N)C(=O)N[C@@H](CCCCN)C(=O)NCC(N)=O,broth microdilution,ATCC 6051,"18 h, 37 °C",1.88 µM
CC[C@H](C)[C@H](NC(=O)[C@H](CC(C)C)NC(=O)[C@H](CCCNC(=N)N)NC(=O)[C@@H](N)CCCNC(=N)N)C(=O)N[C@@H](CC(C)C)C(=O)N[C@H](C(=O)N[C@@H](CCCCN)C(=O)N[C@H](C(=O)NCC(=O)N1CCC[C@H]1C(=O)N[C@H](C(=O)N[C@H](C(=O)N[C@@H](Cc1ccc(O)cc1)C(=O)N[C@@H](CCCCN)C(=O)N[C@@H](Cc1ccc(O)cc1)C(=O)N[C@@H](Cc1ccccc1)C(=O)N[C@@H](CCCCN)C(=O)N[C@@H](CCCCN)C(=O)N[C@@H](CCC(N)=O)C(=O)N[C@@H](CC(C)C)C(=O)N[C@@H](CC(C)C)C(=O)N[C@@H](CCCCN)C(=O)N[C@@H](CC(C)C)C(N)=O)[C@@H](C)CC)[C@@H](C)CC)[C@@H](C)O)[C@@H](C)O,,"CCARM 3089, methicillin-resistant, Mueller-Hinton broth",24 h,32 µM
CC[C@H](C)[C@H](NC(=O)[C@H](CC(C)C)NC(=O)[C@H](CCCCN)NC(=O)[C@@H](NC(=O)[C@H](C)NC(=O)[C@H](CCC(=O)O)NC(=O)[C@H](Cc1c[nH]cn1)NC(=O)[C@@H](NC(=O)[C@H](CCCCN)NC(=O)[C@H](CCC(N)=O)NC(=O)[C@H](Cc1ccccc1)NC(=O)[C@@H](NC(=O)[C@H](CCCCN)NC(=O)[C@@H](N)CCCCN)C(C)C)[C@@H](C)CC)[C@@H](C)CC)C(N)=O,broth microdilution,MW2 resistant,"18 h, 37 °C",32 µM
CC[C@H](C)[C@H](NC(=O)[C@H](CC(C)C)NC(=O)[C@H](CCCNC(=N)N)NC(=O)[C@@H](N)CCCNC(=N)N)C(=O)N[C@@H](CCCNC(=N)N)C(=O)N[C@H](C(=O)N[C@@H](CCCCN)C(=O)N[C@H](C(=O)NCC(=O)N1CCC[C@H]1C(=O)N[C@H](C(=O)N[C@H](C(=O)N[C@@H](Cc1ccc(O)cc1)C(=O)N[C@@H](CCCCN)C(=O)N[C@@H](Cc1ccc(O)cc1)C(=O)N[C@@H](Cc1ccccc1)C(=O)N[C@@H](CCCCN)C(=O)N[C@@H](CCCCN)C(=O)N[C@@H](CCC(N)=O)C(=O)N[C@@H](CC(C)C)C(=O)N[C@@H](CC(C)C)C(=O)N[C@@H](CCCCN)C(=O)N[C@@H](CCCCN)C(N)=O)[C@@H](C)CC)[C@@H](C)CC)[C@@H](C)O)[C@@H](C)O,broth microdilution,"KCTC 1621, Mueller-Hinton broth","24 h, 37 °C",128 µM
CC[C@H](C)[C@H](NC(=O)[C@H](CCCCN)NC(=O)[C@H](CCCNC(=N)N)NC(=O)[C@H](CCCNC(=N)N)NC(=O)[C@H](CC(C)C)NC(=O)[C@H](CCCCN)NC(=O)[C@H](CCCCN)NC(=O)[C@H](Cc1ccccc1)NC(=O)[C@H](CC(C)C)NC(=O)CNC(=O)[C@H](CCCNC(=N)N)NC(=O)[C@@H](N)CCCNC(=N)N)C(=O)N[C@@H](CCCCN)C(=O)N[C@@H](CCCCN)C(=O)NCC(=O)N[C@@H](Cc1ccccc1)C(=O)N[C@@H](CCCCN)C(=O)N[C@@H](CCCCN)C(=O)N[C@H](C(=O)N[C@@H](Cc1ccccc1)C(=O)N[C@@H](CCCCN)C(=O)N[C@@H](CCCNC(=N)N)C(=O)N[C@@H](CC(C)C)C(=O)N1CCC[C@H]1C(=O)N1CCC[C@H]1C(=O)N[C@H](C(=O)NCC(=O)N[C@H](C(=O)NCC(=O)N[C@H](C(=O)N[C@@H](CO)C(=O)O)C(C)C)C(C)C)C(C)C)[C@@H](C)CC,,CMCC 26003,highest concentration 50 µM,2.58 µM

# For quick reference, copied from above:
Structure (SMILES),test,test system,conditions,MIC
CC[C@H](C)[C@H](NC(=O)[C@H](CC(C)C)NC(=O)[C@H](CCCNC(=N)N)NC(=O)[C@@H](N)CCCNC(=N)N)C(=O)N[C@@H](CCCNC(=N)N)C(=O)N[C@@H](CCCCN)C(=O)N[C@@H](CC(C)C)C(=O)N[C@@H](CCCCN)C(=O)NCC(=O)N1CCC[C@H]1C(=O)N[C@H](C(=O)N[C@H](C(=O)N[C@@H](Cc1ccc(O)cc1)C(=O)N[C@@H](CC(C)C)C(=O)N[C@@H](Cc1ccc(O)cc1)C(=O)N[C@@H](Cc1ccccc1)C(=O)N[C@@H](CCCCN)C(=O)N[C@@H](CC(C)C)C(=O)N[C@@H](CCC(N)=O)C(=O)N[C@@H](CC(C)C)C(=O)N[C@@H](CC(C)C)C(=O)N[C@@H](CCCCN)C(=O)N[C@@H](CCCCN)C(N)=O)[C@@H](C)CC)[C@@H](C)CC,,"CCARM 3090, methicillin-resistant, Mueller-Hinton broth",24 h,64 µM
CC[C@H](C)[C@H](N)C(=O)N[C@@H](CCCNC(=N)N)C(=O)N[C@H](C(=O)N[C@@H](Cc1c[nH]c2ccccc12)C(=O)N[C@@H](Cc1c[nH]c2ccccc12)C(=O)N[C@@H](CCCCN)C(=O)N[C@H](C(=O)N[C@H](C(=O)N[C@@H](CCCNC(=N)N)C(=O)N[C@@H](CCCCN)C(=O)N[C@@H](Cc1c[nH]c2ccccc12)C(=O)N[C@@H](CCCCN)C(=O)N[C@@H](C)C(=O)N[C@H](C(=O)N[C@@H](Cc1c[nH]c2ccccc12)C(=O)N[C@@H](Cc1c[nH]cn1)C(N)=O)[C@@H](C)CC)C(C)C)[C@@H](C)CC)C(C)C,broth dilution,"ATCC 25923, Mueller-Hinton broth","24 h, 37 °C",25 µM
CS(=O)(=O)Nc1ncn(-c2cc(F)c(COc3ccc(OS(=O)(=O)F)cc3)c(F)c2)n1,,MRSA,,> 50 µM
